Results of several laboratories.
Values joined by “and” are separate records of one study, mostly repeats; a detail may differ. ± marks the error that the study gave.

CNC(=O)c1cccc(-c2ccc([C@@H](O)[C@H]3O[C@H](CO)[C@@H](O)[C@H](O)[C@@H]3O)c(C)c2)c1 gave an AUC(0-inf) of 1440 ng·h/mL (male Sprague-Dawley rat, plasma; intravenous, 3 mg/kg, group mean).
The AUC(0-inf) of Cc1nc(-c2cnc(NC(C)C)n(C)c2=O)ccc1Oc1ccnc(-c2cnn(C)c2)c1 is reported as 278000 ng·h/mL (Sprague-Dawley rat, male, plasma; oral, 10 mg/kg).
The AUC(0-inf) of C=CC(=O)N1CCC(Oc2cc3c(Nc4ccc(Cl)c(Cl)c4F)ncnc3cc2OC)CC1 is reported as 6830 ± 895 ng·h/mL (male Sprague-Dawley rats, plasma; oral, 2 mg/kg, with: schisandrin A pretreatment 20 mg/kg daily 1 week).
For Nc1nc(O)c2ncn(COC(CO)CO)c2n1, the AUC(0-inf) was 550 ± 80.7 ng·h/mL (Sprague-Dawley rat male; oral, 10 mg/kg).
CNC(=O)c1cccc(-c2ccc(O[C@H]3O[C@H](CO)[C@@H](O)[C@H](O)[C@@H]3O)c(C)c2)c1 gave an AUC(0-inf) of 16 ng·h/mL (male Sprague-Dawley rat, plasma; oral, 10 mg/kg, group mean).
With Cc1cccc(CNC(=O)c2cn(CCNC(=O)c3ccccc3S)c3cc4c(cc3c2=O)OC(F)(F)O4)n1 the AUC(0-inf) was 2740 ng·h/mL (Sprague-Dawley rat, male, whole blood; intramuscular, 3 mg/kg of parent compound).
The AUC(0-inf) of COC(=O)C1=CO[C@@H](O[C@@H]2O[C@H](CO)[C@@H](O)[C@H](O)[C@H]2O)[C@@H]2C(CO)=CC[C@H]12 is reported as 238.2 ± 1.27 ng·h/mL (rat, plasma; oral, 500 mg/kg Eu extract, dosed as Eu extract).
CCCCOCCOc1ccc(-c2ccc3c(c2)/C=C(/C(=O)Nc2ccc([S@@+]([O-])Cc4cncn4CCC)cc2)CCCN3CC(C)C)cc1 has an AUC(0-inf) of 5810 ng·h/mL (moderate hepatic impairment patients, plasma; oral, 150 mg, day 1, single dose, geometric mean).
With C=CC(=O)N1CCC([C@@H]2CCNc3c(C(N)=O)c(-c4ccc(Oc5ccccc5)cc4)nn32)CC1 the AUC(0-inf) was 2890 ± 583 ng·h/mL (Sprague-Dawley rats, plasma; oral, 16 mg/kg, with: posaconazole 40 mg/kg).
The AUC(0-inf) of Cc1cc(-c2ccc3cc[nH]c(=O)c3c2)ccc1O[C@H]1O[C@H](CO)[C@@H](O)[C@H](O)[C@@H]1O is reported as 125 ng·h/mL (male Sprague-Dawley rat, plasma; intravenous, 3 mg/kg, group mean).
C1=C/COCc2cc(ccc2OCCN2CCCC2)Nc2nccc(n2)-c2cccc(c2)COC/1 has an AUC(0-inf) of 2.6 fold increase (Sprague-Dawley rats, male, plasma; oral, dose not given, with: isavuconazole; relative to: isavuconazole alone).
For O=C1c2ccncc2C(=O)c2c1[nH]c1ccccc21, the AUC(0-inf) was 844 ± 311 nM·h (Sprague-Dawley rat, male, plasma; intravenous, 1 mg/kg).
CCCc1c(-c2ccc(O)cc2)nn(-c2ccc(O)cc2)c1-c1ccc(O)cc1 gave an AUC(0-inf) of 2000 ± 350 nM·h (item: aglycone; rat, Long-Evans, female, serum; subcutaneous, 2 mg/kg single dose).
The AUC(0-inf) of OCC1=C[C@@H](O)[C@@H]2C=CO[C@@H](O[C@@H]3O[C@H](CO)[C@@H](O)[C@H](O)[C@H]3O)[C@H]12 is reported as 329 ± 211 ng·h/mL (rat, plasma; oral, 500 mg/kg Eu extract, dosed as Eu extract).
With CSc1ccccc1C(=O)NCCn1cc(C(=O)NCc2cccc(C)n2)c(=O)c2cc3c(cc21)OC(F)(F)O3 the AUC(0-inf) was 175 ± 19.6 ng·h/mL (Sprague-Dawley rat, male, plasma; intravenous, 5 mg/kg of parent compound).
The AUC(0-inf) of CNCc1cc(-c2ccccc2F)n(S(=O)(=O)c2cccnc2)c1 is reported as 303 ng·h/mL (rat Sprague-Dawley male, plasma; oral, 10 mg/kg).
The AUC(0-inf) of Cc1ccc(S(=O)(=O)n2cc3c4c2C(=O)C(NCc2ccc(Cl)cc2)=CC4=NCC3)cc1 is reported as 1940 ng·h/mL and 2000 ng·h/mL (Sprague-Dawley rat, plasma; intravenous, 5 mg/kg, individual rat).
Cc1cccc(CNC(=O)c2cn(CCNC(=O)c3ccccc3Sc3c([N+](=O)[O-])ncn3C)c3cc4c(cc3c2=O)OC(F)(F)O4)n1 has an AUC(0-inf) of 184 ± 57.3 ng·h/mL (Sprague-Dawley rat, male, plasma; intramuscular, 3 mg/kg).
With CCc1cc(C(=O)NC)c2nccc(N3CCc4c(cc(Cn5ccnc5)cc4-c4cn(C)nc4C(F)(F)F)C3=O)c2c1 the AUC(0-inf) was 55700 ng·h/mL (Sprague-Dawley rats, male, plasma; oral, 50 mg/kg).
